{"data": "Experimental data gathered from unrelated publications", "UCHL1": "Ubiquitin carboxyl-terminal hydrolase isozyme L1 (UCHL1, Homo sapiens, UniProt P09936)", "note": "Protocols differ between the studies behind these lines.", "UniProt P09936, sequence (whole entry, looked up)": "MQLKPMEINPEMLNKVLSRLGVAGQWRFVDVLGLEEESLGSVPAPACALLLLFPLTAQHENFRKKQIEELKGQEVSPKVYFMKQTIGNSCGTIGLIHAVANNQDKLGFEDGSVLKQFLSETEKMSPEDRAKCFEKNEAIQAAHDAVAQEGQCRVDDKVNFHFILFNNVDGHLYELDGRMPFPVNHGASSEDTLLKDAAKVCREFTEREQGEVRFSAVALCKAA"}
{"Structure (SMILES)": "COc1cc(C=C(C#N)C(=O)Nc2ccc(C)cc2)cc(Cl)c1O", "tested on": "UCHL1", "test": "covalent, intact protein LC-MS", "setting": "12.5 µM", "quantity": "labelling", "value": "25.2%"}
{"Structure (SMILES)": "O=C(Cc1ccccc1)Nc1nnc(CCSCCc2nnc(NC(=O)Cc3ccccc3)s2)s1", "tested on": "MDA-MB-453", "test": "cell proliferation, inhibitor, cell counting", "setting": "144 h", "quantity": "EC50", "value": "~20 µM"}
{"Structure (SMILES)": "N#CC(=Cc1cc(F)ccc1F)C(=O)Nc1ccc(Cl)cc1Cl", "tested on": "UCHL1", "test": "covalent, intact protein LC-MS", "setting": "12.5 µM", "quantity": "labelling", "value": "18.1%"}
{"Structure (SMILES)": "C=CC(=O)N1CCC(COCC(=O)N2CCN(c3nc(-c4cnc(N)nc4C(F)F)nc(N4CCOC[C@@H]4C)n3)CC2)CC1", "tested on": "MDA-MB-453", "test": "western blot, measured: phospho-S6 Ser235/Ser236", "setting": "2 h", "quantity": "IC50", "value": "0.549 µM"}
{"Structure (SMILES)": "O=C(c1cc(Cc2n[nH]c(=O)c3ccccc23)ccc1F)N1CCN(C(=O)C2CC2)CC1", "tested on": "MDA-MB-453", "quantity": "IC50", "value": "0.435 µM"}
{"Structure (SMILES)": "COc1cnc2cccc(N3CCc4c(cc(Cn5ccnc5C)cc4-c4cn(C)nc4C(F)(F)F)C3=O)c2c1", "tested on": "MDA-MB-453", "test": "cell growth, inhibitor", "setting": "120 h", "quantity": "EC50", "value": "0.977 µM"}
{"Structure (SMILES)": "C[C@H](Nc1ccc2c(c1)OCCn1cc(N3C(=O)OC[C@H]3C(F)F)nc1-2)C(N)=O", "tested on": "MDA-MB-453", "test": "cell growth, CellTiter-Glo", "setting": "120 h", "quantity": "Hill coefficient GR curve", "value": 1.89}
{"Structure (SMILES)": "Cc1nc(NC(=O)N2CCC[C@H]2C(N)=O)sc1-c1ccnc(C(C)(C)C(F)(F)F)c1", "tested on": "MDA-MB-453", "test": "western blot, measured: phospho-S6 Ser235/Ser236", "setting": "2 h", "quantity": "IC50", "value": "2.01 µM"}
{"Structure (SMILES)": "O=C(/C=C/C=C/C=C/C1CCCCC1)NC1=C[C@@](O)(/C=C/C=C/C=C/C(=O)NC2=C(O)CCC2=O)[C@@H]2O[C@@H]2C1=O", "tested on": "MDA-MB-453", "test": "cell growth, CellTiter-Glo", "setting": "78 h", "quantity": "GI50", "value": "8.29 µM"}
{"Structure (SMILES)": "C[C@H](Nc1ccc2c(c1)OCCn1cc(N3C(=O)OC[C@H]3C(F)F)nc1-2)C(N)=O", "tested on": "MDA-MB-453", "test": "resazurin growth rate inhibition", "setting": "72 h", "quantity": "GR50", "value": "6.3 nM"}
{"Structure (SMILES)": "CCn1cc(-c2cc(Cn3ccoc3=N)cc3c2CCN([C@@H](C)c2cc(OC)ccn2)C3=O)c(C(F)(F)F)n1", "tested on": "MDA-MB-453", "test": "cell growth, inhibitor", "setting": "120 h", "quantity": "EC50", "value": "0.193 µM"}
{"note": "Repeated from above:"}
{"Structure (SMILES)": "N#CC(=Cc1cc(F)ccc1F)C(=O)Nc1ccc(Cl)cc1Cl", "tested on": "UCHL1", "test": "covalent, intact protein LC-MS", "setting": "12.5 µM", "quantity": "labelling", "value": "18.1%"}
